Results of several laboratories.
Protocols differ between the studies behind these lines. ± marks the error that the study gave.
Organism: HIV-1

The IC50 of `C=C(C)[C@@H]1CC[C@]2(C(=O)ON3C(=O)CCC3=O)CC[C@]3(C)[C@H](CC[C@@H]4[C@@]5(C)CC[C@H](O)C(C)(C)[C@@H]5CC[C@]43C)[C@@H]12` is reported as over 10000 nM (viral replication, item: p24; MT4, NL4-3; 96 h).
The IC50 of `O=c1cc(-c2ccc(O)c(O)c2)oc2cc(O)cc(O)c12` is reported as 4380 nM (viral replication; TZM-bl, BaL, CCR5-tropic; 48 h).
With `CN(C)CCCn1c(=O)c2cc(Br)c3c(=O)n(CCCN(C)C)c(=O)c4c5[nH]c6ccc(C(=O)O)cc6[nH]c5c(c1=O)c2c34` the therapeutic window was 800 to 5000 nM (viral replication; TZM-bl, NL4-3; range active at 80% cytotoxicity or less).
The EC50 of `O=C1Nc2ccc(Cl)cc2[C@@](C#CC2CC2)(C(F)(F)F)O1` is reported as 3.8 ± 0.63 nM (viral replication; MT-4, IIIB).
With `C#CCOC(=O)[C@]12CC[C@@H](C(=C)C)[C@@H]1[C@H]1CC[C@@H]3[C@@]4(C)CC[C@H](O)C(C)(C)[C@@H]4CC[C@@]3(C)[C@]1(C)CC2` the IC50 was over 10000 nM (viral replication, item: p24; MT4, NL4-3; 96 h).
For `COc1ccc(S(=O)(=O)NCCCNC(=O)c2[nH]c3ccc(Cl)cc3c2S(=O)(=O)c2cc(C)cc(C)c2)cc1`, the EC50 was 37 ± 8.5 nM (viral replication; MT-4, IIIB).
With `Cc1cc(C)cc(C(=O)c2cc(Cl)ccc2OCCn2c3c(c(=O)[nH]c2=O)CCC3)c1` the EC90 was 30 nM (viral replication; MAGI-CCR5, Ba-L, CCR5-tropic; co-addition with virus).
The EC50 of `Cc1cc(C)cc(S(=O)(=O)c2c(C(=O)NCCCCCNS(=O)(=O)c3ccc(F)cc3)[nH]c3ccc(Cl)cc23)c1` is reported as 20 ± 5 nM (viral replication; MT-4, IIIB).
`C=C(C)[C@@H]1CC[C@]2(C(=O)O)CC[C@]3(C)[C@H](CC[C@@H]4[C@@]5(C)CC[C@H](OCOC)C(C)(C)[C@@H]5CC[C@]43C)[C@@H]12` has an IC50 of over 10000 nM (viral replication, item: p24; MT4, NL4-3; 96 h).
For `CN(C)CCCn1c(=O)c2ccc3c(=O)n(CCCN(C)C)c(=O)c4c5[nH]c6ccccc6[nH]c5c(c1=O)c2c34`, the therapeutic window was 3.9 to 250 nM (viral replication; TZM-bl, NL4-3; range active at 80% cytotoxicity or less).
For `O=c1ccn([C@H]2C=C[C@@H](CO)O2)c(=O)[nH]1`, the EC90 was over 100000 nM (viral replication, item: reverse transcriptase activity; human PBM cells, LAI).
With `Cc1cc(C)cc(S(=O)(=O)c2c(C(=O)NCCCCNS(=O)(=O)c3ccc(C#N)cc3)[nH]c3ccc(Cl)cc23)c1` the EC50 was 17 ± 10 nM (viral replication; MT-4, IIIB).
`CN(C)CCCn1c(=O)c2cc(Br)c3c(=O)n(CCCN(C)C)c(=O)c4c5[nH]c6ccccc6[nH]c5c(c1=O)c2c34` has a therapeutic window of 15.6 to 125 nM (TZM-bl, BaL; activity with cytotoxicity below 80%).
`C=C(C)[C@@H]1CC[C@]2(C(=O)OCCCCCCCC)CC[C@]3(C)[C@H](CC[C@@H]4[C@@]5(C)CC[C@H](OC(=O)CC(C)(C)C(=O)O)C(C)(C)[C@@H]5CC[C@]43C)[C@@H]12` has an IC50 of over 10000 nM (viral replication, item: p24; MT4, NL4-3; 96 h).
With `O=c1[nH]c(=O)n([C@H]2C[C@H](OP(=O)(O)OC[C@H]3O[C@H](O)[C@H](O)[C@@H](O)[C@@H]3O)[C@@H](CO)O2)cc1I` the EC90 was over 100000 nM (viral replication, item: reverse transcriptase activity; human PBM cells, LAI).

A few entries again:
With `O=c1[nH]c(=O)n([C@H]2C[C@H](OP(=O)(O)OC[C@H]3O[C@H](O)[C@H](O)[C@@H](O)[C@@H]3O)[C@@H](CO)O2)cc1I` the EC90 was over 100000 nM (viral replication, item: reverse transcriptase activity; human PBM cells, LAI).
The IC50 of `O=c1cc(-c2ccc(O)c(O)c2)oc2cc(O)cc(O)c12` is reported as 4380 nM (viral replication; TZM-bl, BaL, CCR5-tropic; 48 h).
